Assay results of several laboratories.
Lines come from different studies, so protocols differ. ± gives the spread as reported.
Urease: Urease (Canavalia ensiformis, UniProt P07374)
gyrA/gyrB: DNA gyrase (gyrA/gyrB, Escherichia coli, UniProt P0AES4+P0AES6)
HDAC1: Histone deacetylase 1 (HDAC1, Homo sapiens, UniProt Q13547)

| Structure (SMILES) | target | test | system | conditions | IC50 [µM] |
| --- | --- | --- | --- | --- | --- |
| COc1cccc(/C=N/NC(=O)COc2ccc(Sc3ccc(OCC(=O)N/N=C/c4cccc(OC)c4O)cc3)cc2)c1O | Cholinesterase (BCHE, Equus caballus, UniProt P81908) | enzyme activity, inhibitor, Ellman |  |  | 19 |
| CSCC[C@H](NC(=O)[C@@H](N)CCCNC(=N)N)C(=O)N[C@@H](Cc1c[nH]cn1)C(=O)N[C@@H](CC(N)=O)C(=O)N[C@@H](CC(=O)O)C(=O)N[C@H](C(=O)O)[C@@H](C)O | APOBEC3G (Homo sapiens, UniProt Q9HC16) |  |  |  | > 100 |
| COc1c(C[C@@H](C)O)c2c3c(C[C@@H](C)O)c(OC)c(=O)c4c(O)cc5c(c6c(cc(O)c(c1=O)c62)OCO5)c43 | protein kinase C | enzyme activity, inhibitor |  | whole enzyme | 12 |
| COC(=O)c1ccc2c(c1)NC(=O)/C2=C(\Nc1ccc(N(C)C(=O)CN2CCN(CCCCNC(=O)CCc3cn(CCCCN4C[C@@H]5C[C@H]4C(=O)N[C@@H](CC(C)C)C(=O)N[C@@H](CCCNC(=N)N)C(=O)NCC(=O)N[C@@H](CC(=O)O)C(=O)N[C@@H](CC(C)C)C(=O)N5)nn3)CC2)cc1)c1ccccc1 | KDR (Homo sapiens, UniProt P35968) | enzyme activity, inhibitor, radiometric |  |  | 0.018 |
| Cc1ccc2c(n1)c(-c1cccc(S(C)(=O)=O)c1)c(C)n2C/C(F)=C/CN | LOXL1 (Homo sapiens, UniProt Q08397) | enzyme activity, inhibitor, fluorescence |  | with preincubation | 1.71 |
| CN(C)CP(=O)(O)O | Urease | enzyme activity, inhibitor, absorbance |  | pH 7 | 82 |
| CNC(=[Se])NC | Urea transporter 2 (Rattus norvegicus, UniProt Q62668) | urea transport, inhibitor | MDCK expressing rat UT-A1 | 20 min | > 25000 |
| O=C(NO)NCCc1cccs1 | Urease | enzyme activity, inhibitor, absorbance |  |  | 12.2 |
| CC1C(=NNC(=O)c2ccncc2)C(C)C(c2ccc(Cl)cc2)OC1c1ccc(Cl)cc1 (stereo not drawn) | gyrA/gyrB |  |  |  | 15.4 |
| O=C(CCCCCCC(=O)Nc1ccccc1N=Nc1ccccc1)NO | HDAC1 | enzyme activity, inhibitor |  | cis isomer, irradiated | 0.057 ± 0.011 |
| N#Cc1ccc(-c2c[nH]c(CNC(=O)Nc3ncc(Sc4ccccn4)s3)n2)cc1 | enoyl-ACP reductase FabK (Clostridioides difficile, UniProt A0A031WIF2) | enzyme activity, inhibitor, NADH fluorescence |  | with: 150 µM crotonyl-CoA | 7.35 |
| Nc1nc2c(c(=O)[nH]1)[n+](Cc1ccc(S(=O)(=O)F)cc1)cn2[C@@H]1O[C@H](COP(=O)(O)O)[C@@H](O)[C@H]1O | NT5C3B (Homo sapiens, UniProt Q969T7) | m7GMP dephosphorylation, inhibitor, malachite green |  | covalent binding conditions | 0.067 |
| N=C(N)NCCC[C@H](N)C(=O)N1CCC[C@H]1C(=O)N1CCC[C@H]1C(=O)NCC(=O)N[C@@H](Cc1ccccc1)C(=O)N[C@@H](CO)C(=O)N1CCC[C@H]1C(=O)N[C@@H](Cc1ccccc1)C(=O)N[C@@H](CCCCN)C(=O)O | BDKRB1 (Homo sapiens, UniProt P46663) |  |  |  | 130 |
| CC(=O)CCC1C(=O)NC(C(C)C)C(=O)NC(Cc2cc(O)cc(F)c2)C(=O)N2CCCC(N2)C(=O)OC(C(C)=CC=CC(=O)N2CCCCO2)CC=CC=CC(O)C(C)C1O (stereo not drawn) | ABCB11 (Homo sapiens, UniProt O95342) | efflux transport, inhibitor | membrane vesicles | with: taurocholate 2 µM | 12.3 |
| C[C@H](CCC(=O)N[C@H](CC(c1c[nH]c2ccc(N=[N+]=[N-])cc12)c1c[nH]c2ccc(N=[N+]=[N-])cc12)C(=O)O)[C@H]1CC[C@H]2[C@@H]3CC[C@@H]4C[C@H](O)CC[C@]4(C)[C@H]3CC[C@]12C (stereo partly drawn) | ST6GAL1 (Homo sapiens, UniProt P15907) | enzyme activity, UPLC |  |  | 3.3 ± 0.1 |
| CCC(CC)OC1C=C(C(=O)OC(C)OC(=O)C(N)C(C)CC)CC(NC(=N)N)C1NC(C)=O (mixture of isomers) | SLC15A1 (Homo sapiens, UniProt P46059) | [3H]Gly-Sar uptake | Caco-2 | 30 min, pH 6.0, with: Gly-Sar 10 µM | 450 ± 180 |
| CCCC[C@H](NC(=O)[C@H](C)NC(=O)[C@H](C)NC(=O)[C@H](Cc1ccccc1)NC[C@H](CC(C)C)NC(=O)[C@@H](NC(=O)[C@@H](N)CCCNC(=N)N)C(C)C)C(=O)O | Gag-Pol polyprotein, protease (gag-pol, Human immunodeficiency virus 1, UniProt P12497) | enzyme activity, inhibitor, FRET | NL4-3 wild type |  | 0.232 ± 0.03 |
| COc1ccc(CC[C@H]2OC(=O)[C@@H]3CCCCN3C(=O)C(=O)C(C)(C)COC(=O)/C=C/CCN(C)C(=O)[C@H](CC(C)C)N(C)C(=O)[C@@H]3CCCN3C(=O)[C@H](Cc3ccccc3)N(C)C(=O)[C@H](c3ccccc3)NC(=O)CCC(=O)Nc3cccc2c3)cc1OC | SLC29A1 (Homo sapiens, UniProt Q99808) | transporter uptake, inhibitor, radiometric |  |  | 0.0032 |
| N#Cc1cn([C@@H]2O[C@H](CSCC[C@H](N)C(=O)O)[C@@H](O)[C@H]2O)c2ncnc(N)c12 | DNMT1 (Homo sapiens, UniProt P26358) | enzyme activity, inhibitor, radiometric |  |  | 2 |
| CC[C@H](C)[C@H](NC(=O)[C@H](CC(=O)O)NC(=O)[C@H](CC(C)C)NC(=O)[C@H](Cc1cnc[nH]1)NC(=O)[C@@H]1CSSC[C@H](N)C(=O)N[C@@H](CO)C(=O)N[C@H]2CSSC[C@H](NC(=O)[C@H](CCC(=O)O)NC(=O)[C@H](CCCCN)NC(=O)[C@H](CC(=O)O)NC(=O)[C@H](CC(C)C)NC(=O)[C@H](Cc3c[nH]c4ccccc34)NC(=O)[C@H](CO)NC(=O)[C@H](CO)NC2=O)C(=O)N[C@@H](C(C)C)C(=O)N[C@@H](Cc2ccc(O)cc2)C(=O)N[C@@H](Cc2ccccc2)C(=O)N1)C(=O)N[C@H](C(=O)N[C@@H](Cc1c[nH]c2ccccc12)C(=O)O)[C@@H](C)CC | EDNRA (Homo sapiens, UniProt P25101) | ligand displacement, radioligand |  |  | 0.000288 |
| Cc1nc([C@H](NC(=O)c2ccc(-c3ccc(Cl)cc3)[nH]2)[C@@H]2CCCCN2)sc1CO | Gag-Pol polyprotein, reverse transcriptase (gag-pol, Human immunodeficiency virus 1, UniProt P12497) |  |  |  | 43.4 |
| CC(C)[C@H](NC(=O)c1ccc(CNc2nc3c(c(=O)[nH]2)CCC3)cc1)C(=O)NC1CNC1 | MMP8 (Homo sapiens, UniProt P22894) | enzyme activity, inhibitor |  |  | > 5 |
| CC(C)C[C@H](N)C(=O)n1nc(Nc2ccccc2/C=C/C(N)=O)nc1N | DNA topoisomerase 1 (TOP1, Homo sapiens, UniProt P11387) | enzyme activity, inhibitor |  |  | 31.9 |
| O=C(c1cccc(-n2cccc2)c1)N1CCCN(S(=O)(=O)c2ccc(F)cc2)CC1 | Procathepsin L (CTSL, Homo sapiens, UniProt P07711) | enzyme activity, inhibitor, FRET |  |  | 66.9 |
| O=C(CS)NCCCCCNC(=O)c1ccccc1 | HDAC1 | enzyme activity, inhibitor |  |  | 3.36 |
| O=C1c2c(ccc(O)c2O)CN1Cc1cccc(Cl)c1F | Gag-Pol polyprotein, integrase (gag-pol, Human immunodeficiency virus 1, UniProt P12497) | strand transfer, inhibitor, gel-based |  | recombinant wild-type integrase | 2.2 ± 0.3 |
| CC1(C)OC2OC(C(CCO)NCCCCCCCCCCNC(CCO)C3OC4OC(C)(C)OC4C3OCc3ccccc3)C(OCc3ccccc3)C2O1 (stereo not drawn) | DNA ligase 1 (Homo sapiens, UniProt P18858) | enzyme activity, inhibitor, radiometric |  |  | 72 |
| N=C(N)NCCC[C@@H]1NC(=O)[C@H](CCCCNC(=O)CC[C@H](NC(=O)CCOCCOCCOCCOCCNC(=O)CN2CCN(CC(=O)O)CCN(CC(=O)O)CCN(CC(=O)O)CC2)C(=O)NCCCC[C@@H]2NC(=O)[C@@H](Cc3ccccc3)NC(=O)[C@H](CC(=O)O)NC(=O)CNC(=O)[C@H](CCCNC(=N)N)NC2=O)NC(=O)[C@@H](Cc2ccccc2)NC(=O)[C@H](CC(=O)O)NC(=O)CNC1=O | Integrin alpha-V/beta-3 (Homo sapiens, UniProt P05106+P06756) | ligand displacement, radioligand |  |  | 0.005 |
| CC[C@H](C)[C@H](NC(=O)[C@H](CCCNC(=N)N)NC(=O)[C@H](CCCNC(=N)N)NC(=O)[C@@H]1CCCN1C(=O)[C@@H]1CCCN1C(=O)[C@H](CCCNC(=N)N)NC(=O)[C@@H]1CCCN1C(=O)[C@H](CCCNC(=N)N)NC(=O)[C@@H]1CCCN1C(=O)[C@H](CC(C)C)NC(=O)[C@H](Cc1ccc(O)cc1)NC(=O)[C@@H]1CCCN1C(=O)[C@@H]1CCCN1C(=O)[C@H](CCCCN)NC(=O)[C@H](CC(=O)O)NC(=O)[C@@H](NC(=O)c1cn(C2CC2)c2cc(N3CCNCC3)c(F)cc2c1=O)C(C)C)C(=O)N[C@@H](Cc1ccc(O)cc1)C(=O)N[C@@H](CC(N)=O)C(=O)N[C@@H](CCCNC(=N)N)C(N)=O | gyrA/gyrB | enzyme activity, inhibitor |  |  | > 10 |
| COc1ccc(CCNc2cc(-c3ccccc3)nc3ncnn23)cc1 | Cytochrome P450 2D6 (CYP2D6, Homo sapiens, UniProt P10635) |  |  |  | > 50 |

Some of these lines once more:
| Structure (SMILES) | target | test | system | conditions | IC50 [µM] |
| --- | --- | --- | --- | --- | --- |
| CSCC[C@H](NC(=O)[C@@H](N)CCCNC(=N)N)C(=O)N[C@@H](Cc1c[nH]cn1)C(=O)N[C@@H](CC(N)=O)C(=O)N[C@@H](CC(=O)O)C(=O)N[C@H](C(=O)O)[C@@H](C)O | APOBEC3G (Homo sapiens, UniProt Q9HC16) |  |  |  | > 100 |
| N=C(N)NCCC[C@H](N)C(=O)N1CCC[C@H]1C(=O)N1CCC[C@H]1C(=O)NCC(=O)N[C@@H](Cc1ccccc1)C(=O)N[C@@H](CO)C(=O)N1CCC[C@H]1C(=O)N[C@@H](Cc1ccccc1)C(=O)N[C@@H](CCCCN)C(=O)O | BDKRB1 (Homo sapiens, UniProt P46663) |  |  |  | 130 |
